Results pooled from the literature.
Lines come from different studies, so protocols differ. Numbers after ± are the reported error.
Target: Cholinesterase (BCHE, Equus caballus, UniProt P81908)
Chain of UniProt P81908 (whole entry, looked up): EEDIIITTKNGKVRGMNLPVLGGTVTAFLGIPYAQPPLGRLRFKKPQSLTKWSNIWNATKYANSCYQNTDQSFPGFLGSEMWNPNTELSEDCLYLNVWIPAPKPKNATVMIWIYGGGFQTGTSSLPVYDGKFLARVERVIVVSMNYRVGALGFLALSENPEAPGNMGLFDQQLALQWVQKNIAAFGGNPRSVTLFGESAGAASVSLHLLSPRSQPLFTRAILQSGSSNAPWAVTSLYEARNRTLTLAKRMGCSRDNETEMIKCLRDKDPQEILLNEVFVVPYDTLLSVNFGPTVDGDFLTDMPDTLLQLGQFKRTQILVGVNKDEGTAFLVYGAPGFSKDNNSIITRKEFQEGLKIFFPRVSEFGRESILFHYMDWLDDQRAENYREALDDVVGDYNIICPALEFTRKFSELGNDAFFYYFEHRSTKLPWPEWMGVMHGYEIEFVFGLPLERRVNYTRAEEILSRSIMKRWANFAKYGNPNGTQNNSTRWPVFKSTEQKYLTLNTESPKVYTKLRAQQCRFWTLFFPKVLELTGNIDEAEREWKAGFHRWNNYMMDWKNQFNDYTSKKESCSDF

For `O=Cc1ccc(/C=N/NC(=O)COc2ccc(Sc3ccc(OCC(=O)N/N=C/c4ccc(C=O)cc4)cc3)cc2)cc1`, the IC50 was 93.3 µM (enzyme activity, inhibitor, Ellman).
`COC(=O)C1=CO[C@@H](O)[C@@H]2C(Cn3cc(-c4ccccc4)nn3)=CC[C@H]12` gave an IC50 of 537 ± 2 µM (horse serum enzyme).
The IC50 of `O=C1C=C(OCCCCCCn2cc(CNc3ccc4nccnc4c3)nn2)C(=O)c2ccccc21` is reported as 1.4 µM (enzyme activity, inhibitor, Ellman).
For `COc1ccc(-c2c(C#N)c(N)nc3c2CCc2nc4c(cc2-3)c(C)nn4-c2ccccc2)cc1`, the IC50 was > 818 µM (enzyme activity, inhibitor, Ellman).
For `COc1cc(/C=N/NC(=O)COc2ccc(Sc3ccc(OCC(=O)N/N=C/c4cc(OC)c(OC)c(OC)c4)cc3)cc2)cc(OC)c1OC`, the IC50 was 44.7 µM (enzyme activity, inhibitor, Ellman).
The IC50 of `C=CCN1CCC(N2CCCC2=O)c2cc(C)ccc21` (stereo not shown) is reported as < 32 µM (enzyme activity, inhibitor, Ellman).
With `O=C1c2ccccc2NC(c2cc(Br)ccc2O)N1/N=C/c1cc(Br)ccc1O` (stereo not shown) the IC50 was 5.7 µM (enzyme activity, inhibitor, Ellman).
For `COc1c(OC2OC(CO)C(O)C(O)C2O)cc2c3c1-c1ccccc1CC3NCC2` (single isomer, unassigned; (-)), the IC50 was 175.6 ± 1.45 µM (enzyme activity, inhibitor, Ellman).
With `O=C1C=C(OCCCCn2cc(CNc3ccc4nccnc4c3)nn2)C(=O)c2ccccc21` the IC50 was 35.5 µM (enzyme activity, inhibitor, Ellman).
`O=C(COc1ccc(Sc2ccc(OCC(=O)N/N=C/c3ccccc3Cl)cc2)cc1)N/N=C/c1ccccc1Cl` gave an IC50 of 113 µM (enzyme activity, inhibitor, Ellman).
For `CC(=O)C1=C(C)NC(SCCCSc2nnc(Cc3ccccc3Nc3c(Cl)cccc3Cl)n2-c2ccc(Cl)c(Cl)c2)=NC1c1ccc([N+](=O)[O-])cc1` (stereo not shown), the IC50 was 31.9 µM (enzyme activity, inhibitor, Ellman).
For `O=C(/C=C/c1ccc(F)cc1)c1cc2ccccc2oc1=O`, the IC50 was > 40 µM (enzyme activity, inhibitor).
`COCCN1COc2c(cc3c4c(c(=O)oc3c2C)CCC4)C1` gave an IC50 of 147 µM (enzyme activity, inhibitor, Ellman).
The IC50 of `CCCC(=O)Oc1ccc2c(O)c3ccccc3cc2c1O` is reported as > 250 µM (enzyme activity, inhibitor, Ellman; pH 8).
With `COCc1cc(C)nc(SCC[N+](C)(C)CC(=O)Nc2cccc(C(F)(F)F)c2)c1C#N` the IC50 was 5.5 µM (inhibitor).
For `CCCC(=O)Oc1ccc2c(OC(=O)CCC)c3ccccc3cc2c1O`, the IC50 was 17.2 µM (enzyme activity, inhibitor, Ellman; pH 8).
The IC50 of `C=CCN1CCC(N2CCCC2=O)c2cc(CC)ccc21` (stereo not shown) is reported as < 32 µM (enzyme activity, inhibitor, Ellman).
The IC50 of `O=C1C=C(OCCCn2cc(CNc3ccc4nccnc4c3)nn2)C(=O)c2ccccc21` is reported as 15.4 µM (enzyme activity, inhibitor, Ellman).
With `COC(=O)C1=CO[C@@H](O)[C@@H]2C(Cn3cc(C(O)(c4ccccc4)c4ccccc4)nn3)=CC[C@H]12` the IC50 was 54.3 ± 0.34 µM (horse serum enzyme).
The IC50 of `CC(=O)C(=NNc1ccc2c(C)cc(=O)oc2c1)N1CCN(CCO)CC1` is reported as 233 µM (enzyme activity, inhibitor, Ellman; pH 8).
`O=C1c2ccccc2NC(c2cc(Cl)ccc2O)N1N=Cc1cc(Cl)ccc1O` (stereo not shown) gave an IC50 of 4.6 µM (enzyme activity, inhibitor, Ellman).
With `COc1cc2c(cc1OC)[C@@H]1Cc3ccc(OC)c(OC)c3C[N+]1(C)CC2` (stereo partly shown) the IC50 was 234.3 ± 1.08 µM (enzyme activity, inhibitor, Ellman).
The IC50 of `COC(=O)CC1NC(C(C)=O)=NN(c2ccc3c(C)cc(=O)oc3c2)C1=O` (stereo not shown) is reported as 1.1 µM (enzyme activity, inhibitor, Ellman; pH 8).
For `O=C(/C=C/c1cccc(Br)c1)c1cc2ccccc2oc1=O`, the IC50 was > 40 µM (enzyme activity, inhibitor).
With `O=C(COc1ccc(Sc2ccc(OCC(=O)N/N=C/c3ccc(O)cc3)cc2)cc1)N/N=C/c1ccc(O)cc1` the IC50 was 142 µM (enzyme activity, inhibitor, Ellman).
`COc1cc2c(cc1OC)-c1c(C)c3cc(OC)c(OC)cc3c[n+]1CC2` has an IC50 of 32.8 ± 0.34 µM (enzyme activity, inhibitor, Ellman).
`CCN1CCN(C(=NNc2ccc3c(C)cc(=O)oc3c2)C(C)=O)CC1` gave an IC50 of 216 µM (enzyme activity, inhibitor, Ellman; pH 8).
With `O=C(/C=C/c1ccc(Br)cc1)c1cc2ccccc2oc1=O` the IC50 was > 40 µM (enzyme activity, inhibitor).
With `CC(=O)C(=NNc1ccc2c(C)cc(=O)oc2c1)N1CCSCC1` the IC50 was 7.6 µM (enzyme activity, inhibitor, Ellman; pH 8).
The IC50 of `CCN(CC)c1ccc(/C=N/NC(=O)COc2ccc(Sc3ccc(OCC(=O)N/N=C/c4ccc(N(CC)CC)cc4)cc3)cc2)cc1` is reported as 109 µM (enzyme activity, inhibitor, Ellman).
For `C=CCc1ccc(O)c(OC)c1`, the IC50 was 387 µM (enzyme activity, inhibitor, Ellman).
The IC50 of `COC(=O)C1=CO[C@@H](OC(C)=O)[C@@H]2C(Cn3cc(CCBr)nn3)=CC[C@H]12` is reported as 31.8 µM (horse serum enzyme).
With `COc1ccc([C@@H]2N=NC(NCCc3c[nH]c4ccc(C)cc34)=NC2=O)cc1` the IC50 was 128 µM (enzyme activity, inhibitor, Ellman).
`O=C(/C=C/c1ccccc1Br)c1cc2ccccc2oc1=O` gave an IC50 of > 40 µM (enzyme activity, inhibitor).
The IC50 of `COc1cc(O)cc(-c2cc3ccc(O)c(C/C=C(\C)CCC=C(C)C)c3o2)c1CC=C(C)C` is reported as 19.1 µM (enzyme activity, inhibitor).
The IC50 of `COc1ccc2c(c1OC)C(O)C1c3c(cc4c(c3-2)OCO4)CCN1C` (stereo not shown) is reported as 22.47 ± 0.1 µM (enzyme activity, inhibitor, Ellman).
For `O=C(CNC(=S)N/N=C/c1ccc([N+](=O)[O-])cc1)c1ccccc1Cl`, the IC50 was 145 µM (enzyme activity, inhibitor, Ellman).
The IC50 of `CC(=O)Oc1ccc2c(O)c3ccccc3cc2c1O` is reported as 85.2 µM (enzyme activity, inhibitor, Ellman; pH 8).
For `CC(=O)C(=NNc1ccc2c(C)cc(=O)oc2c1)N1CCCCC1`, the IC50 was 1.2 µM (enzyme activity, inhibitor, Ellman; pH 8).
For `O=C(O)Cc1cccc(OC(=O)NCCCCCn2ccc3ccc(F)cc32)c1`, the IC50 was > 10 µM (enzyme activity, inhibitor, HPLC).
`COc1ccc2c(c1)CC1c3c(cc4c(c3-2)OCO4)CCN1C` (single isomer, unassigned; (-)) gave an IC50 of 16.6 ± 0.54 µM (enzyme activity, inhibitor, Ellman).
`COC(=O)C1=CO[C@@H](OC(C)=O)[C@@H]2C(Cn3cc(CN4C(=O)c5ccccc5C4=O)nn3)=CC[C@H]12` has an IC50 of 274 µM (horse serum enzyme).
The IC50 of `CCN(CCCCOc1c(OC)cc(C(=O)N2CCC(Cc3ccccc3)CC2)cc1OC)Cc1ccccc1` is reported as 0.77 µM (enzyme activity, inhibitor, Ellman).
For `COc1ccc(C2N=C(SCCCSc3nnc(Cc4ccccc4Nc4c(Cl)cccc4Cl)n3-c3ccc(Cl)c(Cl)c3)NC(C)=C2C(C)=O)cc1` (stereo not shown), the IC50 was 0.94 µM (enzyme activity, inhibitor, Ellman).
`O=C(/C=C/c1ccccc1F)c1cc2ccccc2oc1=O` has an IC50 of > 40 µM (enzyme activity, inhibitor).
The IC50 of `COc1ccc2c(c1OC)CC1c3c(cc4c(c3-2)OCO4)CC[N+]1(C)[O-]` (single isomer, unassigned; (-)) is reported as 150.6 ± 0.54 µM (enzyme activity, inhibitor, Ellman).
For `CC(C)=CCCC1(C)C=Cc2c(ccc3cc(-c4cc(O)cc(O)c4CC=C(C)C)oc23)O1` (stereo not shown), the IC50 was 1.51 µM (enzyme activity, inhibitor).
The IC50 of `COc1ccccc1/C=N/NC(=O)COc1ccc(Sc2ccc(OCC(=O)N/N=C/c3ccccc3OC)cc2)cc1` is reported as 110 µM (enzyme activity, inhibitor, Ellman).
With `COc1ccc2c(c1)C(=O)c1nccc3cc4c(c-2c13)OCO4` the IC50 was 13.6 ± 0.3 µM (enzyme activity, inhibitor, Ellman).
`Cc1nc2ccc(NCc3cn(CCCOC4=CC(=O)c5ccccc5C4=O)nn3)cc2nc1C` has an IC50 of > 100 µM (enzyme activity, inhibitor, Ellman).
`COc1cc(/C=N/NC(=O)COc2ccc(Sc3ccc(OCC(=O)N/N=C/c4ccc(O)c(OC)c4)cc3)cc2)ccc1O` has an IC50 of 65.7 µM (enzyme activity, inhibitor, Ellman).
The IC50 of `COc1ccc2cc(/C=N/C3CCN(Cc4ccccc4)CC3)ccc2c1` is reported as > 10 µM (inhibitor).
`O=C(/C=C/c1ccc(O)cc1)OC[C@H]1O[C@@H](Oc2c(-c3ccc(O)cc3)oc3cc(O)cc(O)c3c2=O)[C@H](O)[C@@H](OC(=O)/C=C/c2ccc(O)cc2)[C@@H]1O` gave an IC50 of 85.2 µM (enzyme activity, inhibitor, Ellman).
The IC50 of `O=C(COc1ccc(Sc2ccc(OCC(=O)N/N=C/c3cccc(O)c3)cc2)cc1)N/N=C/c1cccc(O)c1` is reported as 60.3 µM (enzyme activity, inhibitor, Ellman).
`CCCN1CCN(C(=NNc2ccc3c(C)cc(=O)oc3c2)C(C)=O)CC1` gave an IC50 of 222 µM (enzyme activity, inhibitor, Ellman; pH 8).

Excerpt of the above:
For `COc1cc(/C=N/NC(=O)COc2ccc(Sc3ccc(OCC(=O)N/N=C/c4cc(OC)c(OC)c(OC)c4)cc3)cc2)cc(OC)c1OC`, the IC50 was 44.7 µM (enzyme activity, inhibitor, Ellman).
The IC50 of `C=CCN1CCC(N2CCCC2=O)c2cc(C)ccc21` (stereo not shown) is reported as < 32 µM (enzyme activity, inhibitor, Ellman).
With `O=C1c2ccccc2NC(c2cc(Br)ccc2O)N1/N=C/c1cc(Br)ccc1O` (stereo not shown) the IC50 was 5.7 µM (enzyme activity, inhibitor, Ellman).
For `COc1c(OC2OC(CO)C(O)C(O)C2O)cc2c3c1-c1ccccc1CC3NCC2` (single isomer, unassigned; (-)), the IC50 was 175.6 ± 1.45 µM (enzyme activity, inhibitor, Ellman).
